Measurements from different studies.
A part holds a random share of what one study measured. Substitutions count along the parent as printed.

Study 1
Target: Centromere-binding protein 1, full length, N-terminal tag (CBF1, Saccharomyces cerevisiae, UniProt P17106, residues 1-351)
Sequence of UniProt P17106 (whole entry, looked up): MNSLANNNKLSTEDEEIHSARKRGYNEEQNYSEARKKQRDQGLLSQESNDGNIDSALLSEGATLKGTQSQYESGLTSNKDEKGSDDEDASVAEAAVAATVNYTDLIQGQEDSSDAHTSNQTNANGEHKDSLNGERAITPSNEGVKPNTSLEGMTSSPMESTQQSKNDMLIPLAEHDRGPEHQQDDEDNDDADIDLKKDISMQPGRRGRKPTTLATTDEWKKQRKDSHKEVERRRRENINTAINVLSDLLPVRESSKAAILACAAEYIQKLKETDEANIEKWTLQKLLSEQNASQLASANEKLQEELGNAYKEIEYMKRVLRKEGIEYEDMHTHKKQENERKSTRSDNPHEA
Method: protein-binding microarray
Form: double-stranded DNA, one strand shown
Matrix: in vitro
Concentration: 0.8 µM
Setting: whole 60-bp probe, no competitor
Reading: higher = stronger binding
| Oligonucleotide | fluorescence intensity [a.u.] |
| --- | --- |
| CTAAGCCATCAAGGTAACGTGTTTACCATCTAATTCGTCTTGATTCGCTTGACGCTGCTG | 726 |
| CTATTGGTCACGTGACACGCGATCAACTACATTTTCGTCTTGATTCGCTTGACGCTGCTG | 45900 |
| TGTACGAAGCTATACATCATGAATATAGTAGTTAGGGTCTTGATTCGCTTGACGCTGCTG | 495 |
| GAAAGAAACATATACCTCGTGCTAAAGAAAATATAGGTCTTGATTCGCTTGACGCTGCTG | 1110 |
| CTATAGCGAGGCCGTGTCACGTTCCCTTTTTTGTTCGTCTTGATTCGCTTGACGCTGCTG | 3020 |
| CTATGCACTTGAAACAACGTGTAGACCATCACGTTCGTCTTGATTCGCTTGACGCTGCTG | 620 |
| CTAATGTAGTATGCGCACCTGATGCGCATAATATTCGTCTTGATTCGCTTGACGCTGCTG | 1250 |
| CTATACAATTTATAAACCACCACCTTGGCCTCGTTCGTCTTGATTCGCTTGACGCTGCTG | 504 |
| CTAGATATGTCTTATTGCGTGATTTCACGGTGTTTCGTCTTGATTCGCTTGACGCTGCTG | 564 |
| CTAAAGAATATAGTAAACGTGTAGCAGAGTCATTTCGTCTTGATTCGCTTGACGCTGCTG | 614 |
| CTAGACATGGTTTTTGCCGTGACCGTGGATCTCTTCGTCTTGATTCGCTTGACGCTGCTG | 611 |

Study 2
Target: Sal-like protein 4, full length isoform B (SALL4, Homo sapiens, UniProt Q9UJQ4-2, residues 1-616)
Method: universal PBM
Form: double-stranded DNA, one strand shown
Matrix: in vitro
Concentration: not given
Setting: 8-mer, flanks averaged, mean of replicates
Reading: higher = stronger binding
Residues (chain): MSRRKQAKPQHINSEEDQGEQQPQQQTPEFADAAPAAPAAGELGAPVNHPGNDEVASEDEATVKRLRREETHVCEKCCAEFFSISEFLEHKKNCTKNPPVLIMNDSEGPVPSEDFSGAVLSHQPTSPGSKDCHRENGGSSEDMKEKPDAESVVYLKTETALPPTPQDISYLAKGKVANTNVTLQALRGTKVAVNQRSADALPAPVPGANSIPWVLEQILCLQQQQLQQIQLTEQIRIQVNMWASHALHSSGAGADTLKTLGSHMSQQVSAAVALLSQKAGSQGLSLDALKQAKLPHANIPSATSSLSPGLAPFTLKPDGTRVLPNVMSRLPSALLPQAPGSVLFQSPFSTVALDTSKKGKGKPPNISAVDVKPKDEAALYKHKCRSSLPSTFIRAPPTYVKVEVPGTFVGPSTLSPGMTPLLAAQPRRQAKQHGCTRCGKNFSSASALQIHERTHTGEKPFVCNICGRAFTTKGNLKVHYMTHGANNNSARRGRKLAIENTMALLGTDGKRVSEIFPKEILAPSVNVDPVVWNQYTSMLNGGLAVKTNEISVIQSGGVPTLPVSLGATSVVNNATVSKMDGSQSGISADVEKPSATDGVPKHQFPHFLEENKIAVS
| Oligonucleotide | E-score |
| --- | --- |
| CCGTCTCG | -0.201 |
| GTTTTTAA | 0.223 |
| GCATGTTA | 0.137 |
| CATCTACG | 0.164 |
| GCCCCTAC | -0.223 |
| AAGGAATT | 0.127 |
| ATGATTCC | 0.244 |
| AGATATGC | 0.173 |
| CACGCCCC | -0.339 |
| GGGGTGGA | -0.142 |
| GAACCACC | -0.153 |
| AAATAGGG | 0.185 |
| AACCTCGT | 0.0865 |
| AAATCATA | 0.363 |
| CGGTAAGA | -0.212 |
| AATCGTAT | 0.236 |
| ATGGGGCC | -0.254 |
| CCTCTCGC | -0.124 |
| AGTGCACC | -0.1 |
| CCTTAAGC | -0.104 |

Study 3
Target: RING finger protein unkempt homolog, zinc fingers 1-6, GST-SBP tag (UNK, Homo sapiens, UniProt Q9C0B0, residues 30-357)
Method: RNA Bind-n-Seq
Form: RNA
Matrix: in vitro
Concentration: not given
Setting: RNA with constant flanks, human and mouse sites, ends assumed
Reference: input RNA pool
Reading: higher = stronger binding
Target sequence (chain): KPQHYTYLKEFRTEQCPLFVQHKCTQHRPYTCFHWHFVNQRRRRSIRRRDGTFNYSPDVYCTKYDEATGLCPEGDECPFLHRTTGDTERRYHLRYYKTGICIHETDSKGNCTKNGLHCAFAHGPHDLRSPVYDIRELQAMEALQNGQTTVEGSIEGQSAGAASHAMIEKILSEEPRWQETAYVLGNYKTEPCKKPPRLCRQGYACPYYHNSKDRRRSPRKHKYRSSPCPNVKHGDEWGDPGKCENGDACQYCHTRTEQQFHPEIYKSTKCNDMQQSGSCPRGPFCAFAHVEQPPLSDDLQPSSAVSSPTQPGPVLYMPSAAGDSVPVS
| Oligonucleotide | bound/input enrichment [ratio] |
| --- | --- |
| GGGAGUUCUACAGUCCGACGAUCCUGAAGCCAGCCAAUGUCUUCCUGGACAGCAAACACAAUGUCAAGCUGGGGGACUUUGGACUAGCUAGAAUAUUAAAUCACGACACGAGUUUUGCAAAAACGUUUGUUGGCACACCCUAUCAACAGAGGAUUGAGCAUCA | 1.12 |
| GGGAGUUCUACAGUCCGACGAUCUGGGUGGCAAAAUCCCUUGUUAAAGGAGGUCUGUGCAGGAGGGUUCUUGUUCAGGUCUCUUAUGCUAUUGGAGUUUCUCAUCCAUUGUCGAUCUCCAUUUUCCAUUAUGGCACUUCUCAGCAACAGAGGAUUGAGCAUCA | 0.0877 |
| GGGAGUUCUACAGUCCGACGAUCGUUUCGUCUUGUAUCCCCAAAAUAUUAGCUGAAGAAAGUUAUCUUUAUAAACAUGAUAUUAUAAUGCCUCCUUUACCUUUUACUUCUAAAGUUCAUGUCCAAACUAUUAAUGCCAAGUAGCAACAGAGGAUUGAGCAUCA | 4.2 |
| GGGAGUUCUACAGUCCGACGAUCCUUCUUUACCCCCCCAAUGUUGGUGAUUGAAGAUCCUCUCUUCAGUGGCGUGAAUAAUGAUAGUUAACUUUCCAUUCAUACUUGGAACAAACCCCUUUGGUAAUGUCAAAGGCAGUACCUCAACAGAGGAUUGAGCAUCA | 0.58 |
| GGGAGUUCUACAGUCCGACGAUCGUCCCCCUCUUGCUAAAUAAUGUGAAAGGGGAGCCCCCAGAGGACUCACUGCCUGUAGAUCACUUUCAGACACAAACUGAGCCAGUGGACUUGUCAAUCAACAAAGCCAGGACCUCCCCUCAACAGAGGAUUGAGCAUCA | 0.21 |
| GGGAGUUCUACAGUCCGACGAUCGUCAGGGAACCGGAGCCGGGCCGCCGCGCUGUGGAGAAGCUGCGUCGGGGCGCACAGGUUAUUAGAAAUGGCUACUCCACAGUCAGUUUUCGUCUUUGCAAUCUGCAUUUUAAUGAUAACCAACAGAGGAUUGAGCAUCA | 0.541 |
| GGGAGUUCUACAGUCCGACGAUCGCUAUAAAAAUAAUAGACAAGUCACAGCUGGAUGCAGUAAACCUUGAGAAAAUCUACCGAGAAGUACAGAUAAUGAAAAUGCUCGACCAUCCUCACAUCAUUAAACUGUAUCAGGUAAUGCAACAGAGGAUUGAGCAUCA | 0.387 |
| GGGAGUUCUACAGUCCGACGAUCUACCCGCCAUAUAAUCAGUAUCCCAAUGGGUCAGCCAACGGUUUUGGUGCAGUUAGAAACUUUAGCCCUACUGACUAUUACCAUUCAGAAAUUCCAAACACAAGACCACAUGAAAUUCUGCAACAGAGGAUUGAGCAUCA | 0.596 |

Study 4
Target: ABI1, truncated, D143A, DHFR fusion (Arabidopsis thaliana)
Method: DHFR PCA, deep sequencing
Matrix: yeast
Setting: methotrexate growth selection, single substitutions
Together with: (+)-ABA 0 µM
Reference: wild-type fitted maximum
Reading: higher = stronger binding
Parent: PYL1, truncated, DHFR fusion (Arabidopsis thaliana); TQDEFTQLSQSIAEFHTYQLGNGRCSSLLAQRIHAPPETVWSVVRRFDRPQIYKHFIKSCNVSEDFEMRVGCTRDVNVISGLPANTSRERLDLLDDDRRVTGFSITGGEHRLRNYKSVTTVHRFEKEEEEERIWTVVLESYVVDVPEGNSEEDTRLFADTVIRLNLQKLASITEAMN; partner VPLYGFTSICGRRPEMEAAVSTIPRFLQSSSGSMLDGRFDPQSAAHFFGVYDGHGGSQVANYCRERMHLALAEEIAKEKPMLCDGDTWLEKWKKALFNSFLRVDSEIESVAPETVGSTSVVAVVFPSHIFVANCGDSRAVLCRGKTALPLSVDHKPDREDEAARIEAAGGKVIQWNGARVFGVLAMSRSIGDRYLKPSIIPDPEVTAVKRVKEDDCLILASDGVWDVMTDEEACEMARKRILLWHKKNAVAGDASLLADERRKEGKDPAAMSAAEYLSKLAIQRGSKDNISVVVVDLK
| Change | relative binding score |
| --- | --- |
| K116H | 9.12% |
| S42Y | -1.17% |
| F157Y | 47.3% |
| S150H | 9.42% |
| F47G | -4.54% |
| D75G | -0.00823% |
| D95R | -6.07% |
| R155I | -1.83% |
| N61Y | 24.9% |
| E4M | 19.5% |
| A175C | 2.99% |
| T160C | 1.04% |
| I57L | -1.42% |
| L20A | 37.9% |

Study 5
Target: CCND1, cyclin fold, Cln2 fusion (human)
Method: yeast growth competition, sequencing
Matrix: yeast
Setting: weak parent motif
Reference: not given
Reading: higher = stronger binding
Parent: FZR1 docking peptide (human); QDYERRLLRQIVI; partner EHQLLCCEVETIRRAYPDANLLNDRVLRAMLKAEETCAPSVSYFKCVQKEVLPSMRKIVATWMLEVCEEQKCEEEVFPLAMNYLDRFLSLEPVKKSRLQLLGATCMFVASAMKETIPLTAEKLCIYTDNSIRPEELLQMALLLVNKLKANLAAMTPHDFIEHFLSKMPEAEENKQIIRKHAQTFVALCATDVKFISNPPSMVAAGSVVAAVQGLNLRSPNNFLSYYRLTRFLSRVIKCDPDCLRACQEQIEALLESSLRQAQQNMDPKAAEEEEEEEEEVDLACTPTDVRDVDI
| Change | normalised enrichment score |
| --- | --- |
| QDAERRLLRQIVI [Y3A] | 0.0189 |
| QDYARRLLRQIVI [E4A] | 0.254 |
| QDYERRLFRQIVI [L8F] | -0.212 |
| QDYERRALRQIVI [L7A] | 0.0586 |
| ADYERRLLRQIVI [Q1A] | 0.0557 |
| QDYERRLLRAIVI [Q10A] | -0.203 |
| QDYERRLLRQIAI [V12A] | -0.292 |

Single results of other studies
| Molecule | target | test | system | setting | how to read | quantity | result |
| --- | --- | --- | --- | --- | --- | --- | --- |
| PhoQ, residues 284 288 289 292 302 303 TLSLKA | PhoP, residues 12 14 15 18 19 QWHVF (Escherichia coli, UniProt P23836) | Sort-seq, measured: YFP reporter | E. coli | PhoQ-PhoP variant library, together with: 10 µM Mg2+ | reference: high Mg2+ state, higher = stronger signaling | fold induction | 1.76 |
